Measurements of several laboratories.
Numbered parts are unrelated; each lists some results of a single study.

Series 1 — method: RNA Bind-n-Seq; molecule type: RNA; sample: in vitro; concentration: 100 nM; reference: input RNA pool; direction: higher = stronger binding; endpoint: bound/input enrichment
Target: RING finger protein unkempt homolog, zinc fingers 1-6, SBP tag (UNK, Homo sapiens, UniProt Q9C0B0, residues 30-357)
UniProt Q9C0B0, sequence (30-357, looked up): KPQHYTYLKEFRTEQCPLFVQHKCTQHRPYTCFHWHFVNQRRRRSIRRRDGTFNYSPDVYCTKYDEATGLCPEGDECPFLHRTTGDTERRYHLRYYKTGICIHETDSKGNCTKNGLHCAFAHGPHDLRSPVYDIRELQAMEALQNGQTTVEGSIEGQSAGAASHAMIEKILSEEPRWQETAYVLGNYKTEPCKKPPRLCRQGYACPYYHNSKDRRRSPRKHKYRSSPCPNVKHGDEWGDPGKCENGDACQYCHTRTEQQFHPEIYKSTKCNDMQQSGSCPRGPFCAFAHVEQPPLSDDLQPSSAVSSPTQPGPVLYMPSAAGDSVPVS
Notes: RNA with constant flanks, vertebrate orthologous sites, ends assumed
Shared flanks, not repeated: GGGAGUUCUACAGUCCGACGAUC … CAACAGAGGAUUGAGCAUCA
CGAAAGUUAGAGCAAAAGAGCCAAGCAGUAGAAUAUUUUUUUUGUAAAUGUAAAACUAAUUAGAUCCAGACUUUGUUUCCUUCUUCAGUUUUAAAAAUAAAAAAAUACCUCAGUGCUAUG: 0.54 ratio
CCCUCUUAACCCCAUAUCUUCUGUUUCAUAGUGCAGAAGUAUUCUUUUCAAUUACAUUAUUAGUGGACUUGUUUUAAUUUUAGAGAAACUUUCAGUACAGAUACUGUGAGCUUACAUGGA: 3.61 ratio
UGUGUUGGUGCAGAGUGCUCUGUGCCAGUGCUCAUCAUCCCUUCUUCACACCACUGUCCCUAGUUAUAGGAAUUUAAUAUUUUUAAAAGUUUUACAUUGCUGUAUAUUCAAAGAUUUGUU: 0.962 ratio
AUUAAAUGCAUAUCAAAUGCUGGAUAUCCCAUUAAACCAUUAUUUAGGUAGACGUUUGUUAUAAUUAAGCUUACAAAUAGGUUUCCUUAAACCAGAAGUGCACUGCCCUUGUCUGAAGUU: 0.969 ratio
AAGGAGCAGCAUAGGCUGUUUGAGCUUCGGGGAAAUGAGCUUUUGCUUUUUGUAUUUAAAUAGGAUACUUUUAUAUGAUGGGUGCUUUUGAGUGUGAAUGCAGCAGGCUCUCCGUUUCAG: 0.592 ratio
GUACUACAAAAAAAAAUCAUCCUAGUUUUAAAGCUAACUACGGUGAUAACUAGUCUGUGCUAGUAGAAUCAUUUAUUAUUACUUUUAAAAUUAUCUGCUCUGUCUGAUACCUGCAACCAC: 1.8 ratio
AUUAAAUGUGUAUCAAAUGCUGGAUAUCCCAUUAAACCAUCAUUUAGGAUAGAUGUUAGUUUGUUAUAAUUAAGCUACAAAUAGGUUUCCUUAAACCAGAAAUGCACUGCCCUUGUCUGA: 0.385 ratio
GUGUAUGUGUGGGUUUGGGGUGGGGGGAGGGGGCAAGACAGAUGGAAUCUCUAGGGUGUAUGAUGGGUAGUAGGAAGCACAGUGCUAAGUGGGCCUCUAUGUUAAACACCUCUGGAGGUG: 0.392 ratio

Series 2 — method: protein-binding microarray; molecule type: double-stranded DNA, one strand shown; sample: in vitro; concentration: 250 nM; notes: 60-bp whole probe; with: salmon DNA 0.4 mg/ml; reference: random background probes; direction: higher = stronger binding; endpoint: log fluorescence; shared flanks, not repeated: GCCTAGCAC … GTCTTGATTCGCTTGACGCTGCTG
Target: Interferon regulatory factor 5, full length, phosphomimetic (IRF5, Homo sapiens, UniProt Q13568-2, residues 1-514, K96S/S451D/S453D/S456D/S462D)
TTTGGTTTCCTACTGCTTTAGTGCTAG: 1.09 z-score
TTTTTTTTTTTTTTTTTGTAGTGCTAG: 1.31 z-score
GACGGACTGGGGTAACGGGACGTGCTA: -0.719 z-score
GACGGTATCGATCTCGGGACGTGCTAG: 3.93 z-score
TCTCTGTTCTTTTCAGTCCCGTGCTAG: 1.63 z-score
GACGGTTTCAGGTATCGGGACGTGCTA: 3.15 z-score
TTAGAGTTCAGTTCCGATTAGTGCTAG: 0.849 z-score
GACGGTCTCGACACTGGGGACGTGCTA: -0.25 z-score
TGTCCTTTTCTTTACTGATGGTGCTAG: 1.18 z-score
GGCTTGACGTCATCCCCTTGGTGCTAG: -0.456 z-score
GCCGGTATCGGTATCGGGACGTGCTAG: 7.66 z-score
TCAGGTTTGTACACCGCACTGTGCTAG: -0.297 z-score
TCAAGTCTCAACCCCCAAACTGTGCTA: -0.0219 z-score
TTAGGTATCGGTGTCGGTTAGTGCTAG: 5.72 z-score
TACGATTTCAGTTTCGAGACGTGCTAG: 7.26 z-score
TTGGGTTTCGGTTCCGGTTAGTGCTAG: 10.4 z-score
TTAGGTTTCGGTTTTCGGTTAGTGCTA: 10.4 z-score
GGCGGTCTCGGTCTCGGGACGTGCTAG: 0.189 z-score
GACGGTACCGACTATCGGGACGTGCTA: 1.38 z-score

Series 3 — method: RNA Bind-n-Seq; molecule type: RNA; sample: in vitro; concentration: 365 nM; reference: no-protein control; direction: higher = stronger binding; endpoint: RBNS enrichment (R)
Target: RNA binding protein fox-1 homolog 2, RRM domain, GST-SBP tag (RBFOX2, Homo sapiens, UniProt O43251-10, residues 100-194)
Notes: natural RNA segment, single round, ends assumed
Shared flanks, not repeated: GGGAGUUCUACAGUCCGACGAUC … UGGAAUUCUCGGGUGCCAA
Target sequence (chain): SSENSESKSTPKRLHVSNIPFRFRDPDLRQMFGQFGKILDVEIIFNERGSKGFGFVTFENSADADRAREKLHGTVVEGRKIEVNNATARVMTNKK
GUAUAGGGAGAUGGAUUAAGUUGAUAAUGACAUUUAGGGCAACUUAAGACCUUUGAUCCCAGGUUCUAACUCAAAGAGGCUGACCUUCCCCCAGCUAAGAUAGCAUGAGG: 8.06
AUAAUAAGCCUUUUUACCUCUGUGUAAAAAAUAUAUAUACAAGUGUAUGAUGUACAUUUUAGUUCUUAACUUUUUUUUAUGGUUUCUAAUAUGUAUGACCAAUGUAGCCA: 0.636
UUAAGAAACCAAAUAAAUUGGUUUUGCUUCCUUGCCAUGGAUUCUGGAAGGACAUAGUUCUUCUAAAAUUUCCUGUUAAUUGGCAUGUACGUCUCAUUUAAAGCAAAUUA: 0.337
GAACCCAAAGCUAGGGCCACCCCUGCACUUAGGCCUUGGCUGAAGAUCUUGAGACUGGUGUUUCCGUGGUCAUUGGUGACAGGAUGUGUGCGCUCGAGUGUGUAAGUGUG: 10.8
AAAUAUGGGGGUCAUGAUUCAACAGAAGUUACAUGGGAUGAAUGGCUCCCAGUUUUCCAGUUUGAGGUUCGUAGAACAAUGUCAAGUGGCAAAAUGAAGUUGGUGGACUC: 0.342
CAUUGUGAAGAAAUGAAGAACCGAUAGUCUAGUUUAAGAAAGUGGCUCUCAGUAUUGUGACAGUACAUUUUUACAAGGUUGUUUUUCUACCACCGUAUUUUUAAAGUAUU: 0.591
UUAGCAGGGGUGACUUUGUCUCUCCUGGCUGGGCCAUCCUUCCGCCAAUCUGGCCCUUACACACUCAGGCCUGUGCCCACUCCCUAUCUCCUUCCCACCCCUACACACAC: 0.768
AAGUAAAAAACACCUUUAAAAUCAUGUCAGCCUGCUUAGAAUGUACAUGUUAAAAAGCAAUUUAAGAUGAAAAAACUAGCUUUACAGUGUGUACACUUUUUCUCUAAAAU: 0.644

Series 4 — method: protein-binding microarray; molecule type: double-stranded DNA, one strand shown; sample: in vitro; concentration: not given; direction: higher = stronger binding; endpoint: E-score
Target: Max-binding protein MNT, bHLH-zipper, MAX partner unstated (MNT, Homo sapiens, UniProt Q99583, residues 220-300)
Notes: k-mer, scored over probes, only values ≥0.25
Target sequence (chain): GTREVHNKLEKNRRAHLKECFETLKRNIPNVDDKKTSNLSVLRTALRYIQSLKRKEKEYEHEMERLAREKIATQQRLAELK
ATGCCGCA: 0.268
ATGTGGGG: 0.307
GCATGGGC: 0.312
ACACACGA: 0.317
CGTGTAAG: 0.338
ACGCCACC: 0.32
GCGCGCAC: 0.266
GGCGTGTA: 0.332
CAGCGTGG: 0.436
ACGCGCAT: 0.34
CACCTGCG: 0.318
AGCGTGGA: 0.392
GCGCCCCA: 0.258
CGTCGTGC: 0.292
GACCACGC: 0.422
GCGTGAGA: 0.287
CGTCACGC: 0.358
CACGCGGC: 0.471

A few entries again (series 1):
CGAAAGUUAGAGCAAAAGAGCCAAGCAGUAGAAUAUUUUUUUUGUAAAUGUAAAACUAAUUAGAUCCAGACUUUGUUUCCUUCUUCAGUUUUAAAAAUAAAAAAAUACCUCAGUGCUAUG: 0.54 ratio
CCCUCUUAACCCCAUAUCUUCUGUUUCAUAGUGCAGAAGUAUUCUUUUCAAUUACAUUAUUAGUGGACUUGUUUUAAUUUUAGAGAAACUUUCAGUACAGAUACUGUGAGCUUACAUGGA: 3.61 ratio
UGUGUUGGUGCAGAGUGCUCUGUGCCAGUGCUCAUCAUCCCUUCUUCACACCACUGUCCCUAGUUAUAGGAAUUUAAUAUUUUUAAAAGUUUUACAUUGCUGUAUAUUCAAAGAUUUGUU: 0.962 ratio
AUUAAAUGCAUAUCAAAUGCUGGAUAUCCCAUUAAACCAUUAUUUAGGUAGACGUUUGUUAUAAUUAAGCUUACAAAUAGGUUUCCUUAAACCAGAAGUGCACUGCCCUUGUCUGAAGUU: 0.969 ratio
AAGGAGCAGCAUAGGCUGUUUGAGCUUCGGGGAAAUGAGCUUUUGCUUUUUGUAUUUAAAUAGGAUACUUUUAUAUGAUGGGUGCUUUUGAGUGUGAAUGCAGCAGGCUCUCCGUUUCAG: 0.592 ratio
GUACUACAAAAAAAAAUCAUCCUAGUUUUAAAGCUAACUACGGUGAUAACUAGUCUGUGCUAGUAGAAUCAUUUAUUAUUACUUUUAAAAUUAUCUGCUCUGUCUGAUACCUGCAACCAC: 1.8 ratio
AUUAAAUGUGUAUCAAAUGCUGGAUAUCCCAUUAAACCAUCAUUUAGGAUAGAUGUUAGUUUGUUAUAAUUAAGCUACAAAUAGGUUUCCUUAAACCAGAAAUGCACUGCCCUUGUCUGA: 0.385 ratio
GUGUAUGUGUGGGUUUGGGGUGGGGGGAGGGGGCAAGACAGAUGGAAUCUCUAGGGUGUAUGAUGGGUAGUAGGAAGCACAGUGCUAAGUGGGCCUCUAUGUUAAACACCUCUGGAGGUG: 0.392 ratio
